Measurements pooled from the literature.
Numbered parts are unrelated; each lists some results of a single study. Substitutions count along the parent as printed.
Chain of UniProt Q9ZTX9 (whole entry, looked up): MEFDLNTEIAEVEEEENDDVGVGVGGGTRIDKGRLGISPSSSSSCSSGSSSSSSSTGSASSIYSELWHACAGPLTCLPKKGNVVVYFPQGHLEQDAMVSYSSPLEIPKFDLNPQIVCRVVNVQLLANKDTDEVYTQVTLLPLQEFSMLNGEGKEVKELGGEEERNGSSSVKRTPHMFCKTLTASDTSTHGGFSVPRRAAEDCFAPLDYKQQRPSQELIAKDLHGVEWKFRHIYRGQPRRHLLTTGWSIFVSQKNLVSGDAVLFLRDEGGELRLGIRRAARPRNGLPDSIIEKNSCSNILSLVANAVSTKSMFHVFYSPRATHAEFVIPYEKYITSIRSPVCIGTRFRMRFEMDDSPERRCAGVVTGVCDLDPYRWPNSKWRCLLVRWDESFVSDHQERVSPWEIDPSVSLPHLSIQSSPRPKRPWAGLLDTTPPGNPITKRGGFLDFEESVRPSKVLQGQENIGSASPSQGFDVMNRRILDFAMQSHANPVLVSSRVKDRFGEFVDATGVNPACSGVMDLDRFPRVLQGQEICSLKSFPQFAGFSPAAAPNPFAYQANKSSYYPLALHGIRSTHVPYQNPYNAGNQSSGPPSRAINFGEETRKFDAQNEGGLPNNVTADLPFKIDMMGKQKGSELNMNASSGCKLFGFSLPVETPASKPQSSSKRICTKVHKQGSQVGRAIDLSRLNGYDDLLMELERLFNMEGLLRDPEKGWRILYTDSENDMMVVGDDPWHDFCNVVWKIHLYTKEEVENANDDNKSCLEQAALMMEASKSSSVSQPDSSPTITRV
Chain of UniProt Q9LQE8 (whole entry, looked up): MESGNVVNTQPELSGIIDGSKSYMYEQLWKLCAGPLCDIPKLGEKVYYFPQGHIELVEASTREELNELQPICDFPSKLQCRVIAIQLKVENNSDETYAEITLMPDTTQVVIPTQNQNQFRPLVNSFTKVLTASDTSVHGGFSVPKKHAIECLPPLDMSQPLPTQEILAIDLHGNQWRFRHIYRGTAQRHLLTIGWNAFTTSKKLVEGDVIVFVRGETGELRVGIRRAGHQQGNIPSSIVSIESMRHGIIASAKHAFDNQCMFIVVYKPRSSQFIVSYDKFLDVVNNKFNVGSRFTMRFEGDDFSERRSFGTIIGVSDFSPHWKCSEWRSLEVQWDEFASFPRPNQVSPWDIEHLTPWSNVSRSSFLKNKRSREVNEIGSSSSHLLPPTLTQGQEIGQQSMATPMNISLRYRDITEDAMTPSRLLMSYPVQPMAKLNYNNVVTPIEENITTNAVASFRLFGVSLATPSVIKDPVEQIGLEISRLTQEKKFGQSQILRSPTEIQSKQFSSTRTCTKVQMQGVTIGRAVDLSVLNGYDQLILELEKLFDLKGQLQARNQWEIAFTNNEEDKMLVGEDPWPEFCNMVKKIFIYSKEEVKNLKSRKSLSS
Chain of UniProt Q93YR9 (whole entry, looked up): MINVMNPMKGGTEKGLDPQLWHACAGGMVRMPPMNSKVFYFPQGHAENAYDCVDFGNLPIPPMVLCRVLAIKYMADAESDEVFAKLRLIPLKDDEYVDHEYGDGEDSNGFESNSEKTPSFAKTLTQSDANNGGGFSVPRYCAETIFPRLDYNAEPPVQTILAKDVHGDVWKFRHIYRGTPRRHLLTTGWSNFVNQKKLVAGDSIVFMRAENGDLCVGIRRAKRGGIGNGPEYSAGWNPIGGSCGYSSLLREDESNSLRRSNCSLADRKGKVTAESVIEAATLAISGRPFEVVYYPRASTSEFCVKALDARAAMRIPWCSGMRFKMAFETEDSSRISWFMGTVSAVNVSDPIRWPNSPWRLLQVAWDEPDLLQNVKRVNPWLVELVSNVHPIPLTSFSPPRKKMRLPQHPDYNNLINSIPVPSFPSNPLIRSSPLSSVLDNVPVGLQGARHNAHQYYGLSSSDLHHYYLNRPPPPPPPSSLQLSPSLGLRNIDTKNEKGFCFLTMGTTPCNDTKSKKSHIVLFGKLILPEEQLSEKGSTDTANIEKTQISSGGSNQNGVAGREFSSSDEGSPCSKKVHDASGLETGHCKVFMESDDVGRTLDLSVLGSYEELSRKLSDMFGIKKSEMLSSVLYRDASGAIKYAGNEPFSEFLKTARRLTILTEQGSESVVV

Sample 1
Target: CCNE1, cyclin fold, Cln2 fusion (human)
Technique: yeast growth competition, sequencing
Matrix: yeast
Notes: strong parent motif
Relative to: not given
Direction: higher = stronger binding
Measurement: normalised enrichment score
Starting sequence: PKN2 docking peptide (human); VSAVRKLDFSDTM
T12W: 5.72
L7K: -0.0803
S10G: 5.73
A3E: 0.835
S10C: 5
L7T: 0.133
K6F: 3.45
A3R: 0.296
T12V: 5.26
F9P: -0.232
V4D: 0.314
D11K: 4.32
V4T: 2.29
R5V: 0.621
V4M: 3.59
L7W: 0.00808
S10E: 5.85
L7N: 0.0967
R5K: 2.82
T12P: 5.45
S10D: 5.91
L7E: 0.0609
L7M: 0.291
F9M: 1.15
F9E: 0.0738

Sample 2
Target: Histone acetyltransferase KAT6A, both winged helices, GST fusion (KAT6A, Homo sapiens, UniProt Q92794, residues 1-181)
Technique: protein binding microarray
Molecule type: double-stranded DNA, one strand shown
Matrix: in vitro
Concentration: not given
Notes: 8-mer, flanks averaged, mean of 2 arrays, mostly near background
Relative to: not given
Direction: higher = stronger binding
Measurement: E-score
Residues (chain): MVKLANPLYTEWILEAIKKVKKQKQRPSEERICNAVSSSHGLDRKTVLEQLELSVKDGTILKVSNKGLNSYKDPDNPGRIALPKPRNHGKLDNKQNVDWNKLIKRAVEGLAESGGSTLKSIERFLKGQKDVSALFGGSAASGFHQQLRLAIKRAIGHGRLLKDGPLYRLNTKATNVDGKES
AAAGGGAC: -0.0571
ACTAACTC: -0.196
TTATTAAA: 0.0276
CCCTAACC: -0.0205
CCGCGGGC: 0.335
AGGAATAG: -0.134
CAGGCAAA: -0.0867
TAGGCGCA: 0.0316
GGACGCAC: 0.194
TCTATTAA: -0.047
AGAGTCCT: -0.115
GAATGAAC: 0.0659
AACGCCCG: 0.182
GCGCATCA: 0.246
CGTTAAGC: 0.136
ACAAGAGC: -0.13
ACAGCACG: 0.0889
GGTAGCAA: -0.0958
ACAGGGAA: -0.296
GACTACTC: 0.105
ATGTTAGG: -0.141
GAGTATGC: 0.0997
CCCTCGCC: -0.0932

Sample 3
Target: BATF3, bZIP domain (human)
Technique: DHFR protein complementation
Matrix: yeast
Notes: single substitutions, most at no-binding floor
Relative to: wild-type JUN-FOS pair
Direction: higher = stronger binding
Measurement: binding fitness
Starting sequence: JUN, bZIP domain (human); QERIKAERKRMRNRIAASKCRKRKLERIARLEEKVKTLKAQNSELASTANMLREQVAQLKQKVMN; partner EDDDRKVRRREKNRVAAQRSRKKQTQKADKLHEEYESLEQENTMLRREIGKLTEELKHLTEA
K34S: 0.27 natural log
V35E: -0.313 natural log
R53N: -0.047 natural log
E44S: 0.129 natural log
N42Y: -0.0709 natural log
T37S: 0.124 natural log
E44G: 0.184 natural log
K39V: 0.144 natural log
R30M: 0.198 natural log
A40M: 0.117 natural log
E54P: -0.537 natural log
E54D: 0.133 natural log

Sample 4
Target: ABI1, truncated, D143A, DHFR fusion (Arabidopsis thaliana)
Technique: DHFR PCA, deep sequencing
Matrix: yeast
Notes: methotrexate growth selection, single substitutions
Together with: (+)-ABA 4.8 µM
Relative to: wild-type fitted maximum
Direction: higher = stronger binding
Measurement: relative binding score
Starting sequence: PYL1, truncated, DHFR fusion (Arabidopsis thaliana); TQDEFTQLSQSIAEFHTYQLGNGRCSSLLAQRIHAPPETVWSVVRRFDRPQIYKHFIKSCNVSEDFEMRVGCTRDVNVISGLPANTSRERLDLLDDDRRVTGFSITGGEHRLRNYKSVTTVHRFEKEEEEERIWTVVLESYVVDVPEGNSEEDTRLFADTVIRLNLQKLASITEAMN
C60E: 8.28%
T39P: 3.27%
F56I: -10.4%
D96M: -14%
E128F: 62.1%
F47L: -7.95%
R123E: 89.5%
R163I: 5.81%
G71F: 4%
S171V: 70.9%
N149D: 10.8%
V76S: 2.84%
M68A: 36.8%
R24H: 45.7%
H110P: 35%
A170M: 31.4%

Sample 5
Target: RING finger protein unkempt homolog, zinc fingers 1-6, GST-SBP tag (UNK, Homo sapiens, UniProt Q9C0B0, residues 30-357)
Technique: RNA Bind-n-Seq
Molecule type: RNA
Matrix: in vitro
Concentration: not given
Notes: RNA with constant flanks, human and mouse sites, ends assumed
Relative to: input RNA pool
Direction: higher = stronger binding
Measurement: bound/input enrichment
All sequences stand within: GGGAGUUCUACAGUCCGACGAUC … CAACAGAGGAUUGAGCAUCA
Construct (chain): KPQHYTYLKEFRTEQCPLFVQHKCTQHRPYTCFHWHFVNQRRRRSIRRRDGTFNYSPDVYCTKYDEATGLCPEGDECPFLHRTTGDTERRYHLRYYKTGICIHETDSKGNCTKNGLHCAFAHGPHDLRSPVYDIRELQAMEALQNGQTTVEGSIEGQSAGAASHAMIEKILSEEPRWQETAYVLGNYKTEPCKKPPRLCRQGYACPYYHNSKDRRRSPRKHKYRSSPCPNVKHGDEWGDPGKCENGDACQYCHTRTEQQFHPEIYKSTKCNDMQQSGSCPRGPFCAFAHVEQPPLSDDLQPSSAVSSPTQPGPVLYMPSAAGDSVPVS
AACCGGUGCAUGGUAGAAAUUGUCCAGAAAUAUGACCCAGAAAAAGACGAGUGGCAUAAAGUUUUUGAUCUUCCUGAGUCGCUGGGUGGCAUUCGGGCUUGCACUCUCACAGUUUUUCCA: 0.144 ratio
AAAAGAGCUAAUCCUCAAGUCGGCGUGGCUUUUCCUCAUAUCAAGCAUAACUAUGAGUGUUUAGUGUAUGUGCAGCUGCCUUUCAUGGAAGACUUGCGGCAAUACAUGUUUUCAUCCUUG: 0.0515 ratio
GGAUAUUCUAAGAUCCAGAUAUACAUAACUGAUCCAGACUUUAAGGGUUUUAUACGCAUCAGCUGUUGCCAGUACUGUAAAAUAGAAUUUCACAUGAAUUGCUGGAAGAAGUUAAAAACU: 0.273 ratio
GAUAUUGUCUUUGCAGAAAAUCUUAGCCGACAUUUUUAUGGCAUCCAAAGAGGUGACAUUGUAAUUGCAAAAAGCCCAAGUGAUCCAAAAUCAAAUAUCUGUAAAAGAGUAAUUGGUUUG: 0.178 ratio
AAUGAUGAUGCAAUGUUGAUCGAGAAGUUCGUGGACACUCCAAGGCAUGUAGAAGUCCAGGUGUUUGGUGAUCACCAUGGCAACGCAGUGUACUUGUUUGAAAGAGACUGUAGUGUGCAG: 0.322 ratio
CAAAAUUUAAGACCAUGAUGAAAUUUCAGUUUCAUUCAAAUGUUACCUAAAAUUUAUGGUGUCAGAAUAAAGGGAGAUCAUAGUGAGUUAAUUUGAUAUUCAUAUCCUGGAAGUAUACAU: 8.34 ratio
GCAGGAGACUGCGUUGCCCUGCUGCAGUCGUGUGAGCCUGCACUCGAUGCUGCCUUUGUGACUAGCCUGUCUUAGGCGGCAGCAUUGAAGUGGCUACCGGCUUCCCCAGACCUCUCUUCA: 0.0585 ratio
GCCCCAGAGCACAAGAAAACCCAAAGUGGAGAGAGGGGAAGAAAGAAAGCACUGAGUCAUCCAUCCAGAAGGGGGGAGAGCAGAGCGCAGCCGCCCAGGCAGGAGCAUCAGCCAGCGAUA: 0.299 ratio
AAAGUCUCCAAUUUGGUUUUCAACCUUAUCUACAAGGUUGAAGAAUUCACUGUGUUUUUCUAGGUUUCAGAGCCACUUGAUGUCUGCUACAAUGAGCUUGUGCAGUAGGUGCUAUAGAUC: 0.344 ratio
UUUAAAGGUUUUUUUUUUUUAAUUUAAUUUUUCCUUUUGGGGGUAAAGUUUGCUCUACCAAAUAGUGAUUGUAACAAAUUGAUCUGUUUUGGAUGUUGCUAUAGUGACAUGCAGUUAUAU: 8.36 ratio
AAAGUGAAACUGGCAGCUGUGGAUGCUACAGUCAAUCAGGUUCUGGCCUCCCGAUACGGGAUUAGAGGAUUUCCUACAAUCAAGAUAUUUCAGAAAGGCGAGUCUCCUGUGGAUUAUGAC: 0.215 ratio

Sample 6
Molecule: B1 (IAA31)
Technique: two-hybrid
Relative to: out of 2 tests
Direction: higher = firmer interaction
Measurement: positive tests
B1: IAA31 (Arabidopsis thaliana, UniProt Q8H174); chain MEVSNSCSSFSSSSVDSTKPSPSESSVNLSLSLTFPSTSPQREARQDWPPIKSRLRDTLKGRRLLRRGDDTSLFVKVYMEGVPIGRKLDLCVFSGYESLLENLSHMFDTSIICGNRDRKHHVLTYEDKDGDWMMVGDIPWDMFLETVRRLKITRPERY
ARF16 570-670 (Arabidopsis thaliana, UniProt Q93YR9): 1
ARF4 660-788 (Arabidopsis thaliana, UniProt Q9ZTX9): 0
ARF14 497-605 (Arabidopsis thaliana, UniProt Q9LQE8): 0

Other studies, line by line
PhoQ, residues 284 288 289 292 302 303 GLASVI — fold induction (PhoP, residues 12 14 15 18 19 LQHIR (Escherichia coli, UniProt P23836); Sort-seq, refers to: YFP reporter; E. coli; PhoQ-PhoP variant library, together with: 10 µM Mg2+; relative to: high Mg2+ state, higher = stronger signaling): 23.7

Excerpt of the above (sample 4):
N149D: 10.8%
S171V: 70.9%
R24H: 45.7%
H110P: 35%
F56I: -10.4%
A170M: 31.4%
E128F: 62.1%
G71F: 4%
